Measured values gathered from unrelated publications.
Organism: Escherichia coli

SMILES	assay	system	conditions	MIC
CCOC(=O)Cc1n[nH]c2nc(N)[nH]c(=O)c2c1=O	microbial growth, broth dilution	BW25113	18 h	> 100 µg/mL
COc1ccc(O)c(/C=N/[C@@H]2CCCC[C@@H]2/N=C/c2c(O)ccc3ccc(OC)cc23)c1	microbial growth, broth dilution	–	–	> 40 µM
COc1c(C)c(OC(=O)c2ccc3ccccc3c2)c(C)c(O)c1C(=O)/C=C/c1ccccc1	microbial growth, broth dilution	ATCC25922	–	5000 µg/mL
COc1cc(C(=O)O)ccc1NC(=O)c1ccc(NC(=O)c2ccc(NC(=O)[C@H](Cc3c[nH]nn3)NC(=O)c3ccc(NC(=O)/C(C)=C/c4ccc(O)cc4)cc3)cc2)c(OC)c1O	broth microdilution	DSM 1116	–	0.25 µg/mL
CC[C@H]1OC(=O)[C@H](C)[C@@H](OC(=O)Cc2c(F)cccc2F)[C@H](C)[C@@H](O[C@@H]2O[C@H](C)C[C@H](N(C)C)[C@H]2O)[C@](C)(OC)C[C@@H](C)C(=O)[C@H](C)[C@@H](O)[C@]1(C)O	–	DSM 30083	compound alone	64 µM
CC1(C)[C@H](NC(=O)/C(=N\OC2(C(=O)O)CCCCC2)c2csc(N)n2)C(=O)N1OS(=O)(=O)O	agar dilution	16-1, ESBL-producing	–	1 µg/mL
CC[C@H]1OC(=O)[C@H](C)[C@@H](OC(=O)Cc2ccc(N)cc2)[C@H](C)[C@@H](O[C@@H]2O[C@H](C)C[C@H](N(C)C)[C@H]2O)[C@](C)(OC)C[C@@H](C)C(=O)[C@H](C)[C@@H](O)[C@]1(C)O	microbial growth	ATCC25922	–	> 32 µg/mL
O=[N+]([O-])c1cc(Cl)c2cccnc2c1O	microbial growth, broth dilution	ATCC25922	–	2 µg/mL
CC1(C)C(NC(=O)C(=NOC2(C(=O)O)CC2)c2csc(N)n2)C(=O)N1OS(=O)(=O)O (centres unmarked)	agar dilution	16-1, ESBL-producing	–	0.06 µg/mL
C=C[C@H]1CC1(NC(=O)C12CC(NC(=O)c3ccc(C#N)cc3)(C1)C2)C(=O)Nc1ccc(C(=O)Nc2ccc(C(=O)Nc3ccc(C(=O)O)cc3)c(O)c2OC(C)C)cc1 (some centres unmarked)	microbial growth	BW25113	–	0.2 µg/mL
CCCCCCCCCC[N+](C)(C)CCCCCCCCCCOc1cc(OCCCCCCCCCC[N+](C)(C)CCCCCCCCCC)cc(OCCCCCCCCCC[N+](C)(C)CCCCCCCCCC)c1.[Br-].[Br-].[Br-]	–	MC4100	–	32 µM
C#CCNC(=O)[C@H]1NC(=O)[C@H]2NC(=O)[C@H](NC(=O)[C@@H]3NC(=O)[C@H](CC(N)=O)NC(=O)[C@H](NC(=O)[C@@H](CC(C)C)NC)[C@H](O)c4ccc(c(Cl)c4)Oc4cc3cc(c4O[C@@H]3O[C@H](CO)[C@@H](O)[C@H](O)[C@H]3O[C@H]3C[C@](C)(N)[C@H](O)[C@H](C)O3)Oc3ccc(cc3Cl)[C@H]2O)c2ccc(O)c(c2)-c2c(O)cc(O)cc21	broth microdilution	ATCC 35218, cation-adjusted Mueller-Hinton broth	18 to 20 h, 37 °C, 0.002% polysorbate 80	32 µg/mL
COc1ccc2ccc(O)c(/C=N/[C@H]3CCCC[C@H]3/N=C/c3ccc(F)cc3O)c2c1	microbial growth, broth dilution	–	–	> 40 µM
CC[C@H](C)[C@H](NC(=O)[C@@H](CCCNC(=N)N)NC(=O)[C@H](CCCNC(=N)N)NC(=O)[C@@H]1CCCN1C(=O)[C@@H]1CCCN1C(=O)[C@H](CCCNC(=N)N)NC(=O)[C@@H]1CCCN1C(=O)[C@H](CCCNC(=N)N)NC(=O)[C@@H]1CCCN1C(=O)[C@H](CC(C)C)NC(=O)[C@H](Cc1ccc(O)cc1)NC(=O)[C@@H]1CCCN1C(=O)[C@H](CCCCN)NC(=O)[C@H](CCCCN)NC(=O)[C@H](CC(=O)O)NC(=O)[C@@H](N)C(C)C)C(=O)N[C@@H](Cc1ccc(O)cc1)C(=O)N[C@@H](CC(N)=O)C(=O)N[C@H](CCCNC(=N)N)C(N)=O	broth microdilution	MC4100	18 h, 37 °C, 25% MHB2	4 µg/mL
CC[C@H]1OC(=O)[C@H](C)[C@@H](OC(=O)Cc2cccc(Cl)c2)[C@H](C)[C@@H](O[C@@H]2O[C@H](C)C[C@H](N(C)C)[C@H]2O)[C@](C)(OC)C[C@@H](C)C(=O)[C@H](C)[C@@H](O)[C@]1(C)O	–	tolC	–	2 µg/mL
CCCCCCCCCCCCCCCCCCn1cc(CN(CCC(=O)NCCN(CCC(=O)NCCN(CCC(=O)NCCN(C)C)CCC(=O)NCCN(C)C)CCC(=O)NCCN(CCC(=O)NCCN(C)C)CCC(=O)NCCN(C)C)CCC(=O)NCCN(CCC(=O)NCCN(CCC(=O)NCCN(C)C)CCC(=O)NCCN(C)C)CCC(=O)NCCN(CCC(=O)NCCN(C)C)CCC(=O)NCCN(C)C)nn1	broth microdilution	ATCC 25922	anaerobic, LB broth	6 µg/mL
C[C@H](CS)C(=O)Nc1cccc(-c2nn[nH]n2)c1	broth microdilution, measured: meropenem	DH5α pET28-lacUV5 control	200 µM, added: meropenem	< 0.125 µg/mL
CC[C@H](C)[C@H](NC(=O)[C@H](CC(N)=O)NC(=O)[C@H](CCC(N)=O)NC(=O)[C@H](CC(C)C)NC(=O)[C@@H](NC(=O)[C@H](Cc1ccccc1)NC(=O)[C@H](Cc1ccc(O)cc1)NC(=O)[C@H](CO)NC(=O)[C@H](CS)NC(=O)[C@H](CC(C)C)NC(=O)[C@H](CCCCN)NC(=O)[C@H](CCCCN)NC(=O)[C@H](CCCNC(=N)N)NC(=O)[C@H](CCCNC(=N)N)NC(=O)[C@H](CS)NC(=O)[C@H](CCCNC(=N)N)NC(=O)[C@H](CCCCN)NC(=O)[C@H](CCCNC(=N)N)NC(=O)[C@H](CCCCN)NC(=O)[C@H](Cc1ccccc1)NC(=O)[C@@H](N)CCCNC(=N)N)[C@@H](C)CC)C(=O)N[C@@H](CC(N)=O)C(=O)N[C@@H](Cc1ccccc1)C(=O)N[C@@H](CCCNC(=N)N)C(=O)N[C@@H](CC(C)C)C(=O)N[C@@H](CCCNC(=N)N)C(=O)N[C@@H](CCCCN)C(=O)NCC(=O)N[C@@H](CCCCN)C(=O)O	broth microdilution	ATCC 25922	16 h, 37 °C, cation-adjusted Mueller-Hinton broth	64 µg/mL

SMILES	assay	system	conditions	MIC
COc1c(C)c(OS(=O)(=O)c2ccccc2)c(C)c(OS(=O)(=O)c2ccccc2)c1C(=O)/C=C/c1ccccc1	microbial growth, broth dilution	ATCC25922	–	5000 µg/mL
COc1cc(C(=O)O)ccc1NC(=O)c1ccc(NC(=O)c2ccc(NC(=O)[C@H](Cc3c[nH]nn3)NC(=O)c3ccc(NC(=O)/C(C)=C/c4ccc(O)cc4)cc3)cc2)c(OC)c1	broth microdilution	BW25113	–	0.25 µg/mL
CCCCCCCC[N+](C)(C)CCCCCCOc1cc(OCCCCCC[N+](C)(C)CCCCCCCC)cc(OCCCCCC[N+](C)(C)CCCCCCCC)c1.[Br-].[Br-].[Br-]	–	MC4100	–	1 µM
CC(C)C[C@@H]1NC(=O)[C@@H](CC(C)C)NC(=O)[C@H](CCN)NC(=O)[C@@H](NC(=O)[C@H](CCN)NC(=O)[C@@H](NC(=O)CCOCCOCCOCCN=[N+]=[N-])[C@@H](C)O)CCNC(=O)[C@H]([C@@H](C)O)NC(=O)[C@H](CCN)NC(=O)[C@H](CCN)NC1=O	broth microdilution	ATCC 35218, cation-adjusted Mueller-Hinton broth	18 to 20 h, 37 °C, 0.002% polysorbate 80	32 µg/mL
C/C(=C\c1ccc(O)cc1)C(=O)Nc1ccc(C(=O)N[C@@H](Cc2c[nH]nn2)C(=O)Nc2ccc(C(=O)Nc3ccc(C(=O)Nc4ccc(C(=O)O)cc4)cc3)cc2)cc1	broth microdilution	DSM 1116	–	0.125 µg/mL
COc1ccc2ccc(O)c(/C=N/[C@H]3CCCC[C@H]3/N=C/c3cc(C(C)(C)C)ccc3O)c2c1	microbial growth, broth dilution	–	clinical isolate	> 40 µM
COc1cc(C(=O)O)ccc1NC(=O)c1ccc(NC(=O)c2ccc(NC(=O)[C@H](Cc3c[nH]nn3)NC(=O)c3ccc(NC(=O)/C(C)=C/c4ccc(O)cc4)cc3)cc2)cc1O	broth microdilution	ciprofloxacin-sensitive	–	0.25 µg/mL
CNC(C)C1CCC(N)C(OC2C(N)CC(N)C(OC3OCC(C)(O)C(NC)C3O)C2O)O1 (centres unmarked)	microbial growth, broth dilution	25922	–	1 µM
COc1nc(C(=O)O)ccc1NC(=O)c1ccc(NC(=O)c2ccc(NC(=O)[C@H](Cc3c[nH]nn3)NC(=O)c3ccc(NC(=O)/C(C)=C/c4ccc(O)cc4)cc3)cc2)c(OC)c1O	broth microdilution	ciprofloxacin-resistant	–	8 µg/mL
CCCCCCCCCCn1cc[n+](CCCCOc2cc(OCCCC[n+]3ccn(CCCCCCCCCC)c3)cc(OCCCC[n+]3ccn(CCCCCCCCCC)c3)c2)c1.[Br-].[Br-].[Br-]	–	MC4100	–	1 µM
COc1cc(C(=O)Nc2ccc(C(=O)O)cc2)ccc1NC(=O)c1ccc(NC(=O)[C@H](Cc2c[nH]nn2)NC(=O)c2ccc(NC(=O)/C(C)=C/c3ccc(O)cc3)cc2)cc1	broth microdilution	ciprofloxacin-resistant	–	32 µg/mL
CCC(CC)c1cc(CCN2CCCN(S(=O)(=O)c3cccc4ccccc34)CC2)nc(-c2ccccn2)n1	microbial growth, broth dilution	ATCC25922	–	> 64 µg/mL
CC[C@H]1OC(=O)[C@H](C)[C@@H](OC(=O)Cc2ccc3c(c2)OCO3)[C@H](C)[C@@H](O[C@@H]2O[C@H](C)C[C@H](N(C)C)[C@H]2O)[C@](C)(OC)C[C@@H](C)C(=O)[C@H](C)[C@@H](O)[C@]1(C)O	–	DSM 30083	added: colistin sulfate at 0.5 x MIC	0.25 µM
COc1c(NC(=O)c2ccc(NC(=O)c3ccc(NC(=O)[C@H](Cc4c[nH]nn4)NC(=O)c4ccc(NC(=O)/C(C)=C/c5ccc(O)cc5)cc4)cc3)cc2O)ccc(C(=O)O)c1O	broth microdilution	ciprofloxacin-resistant	–	0.5 µg/mL
COc1ccc(/N=N/C(=S)N2CCCCC2)cc1	microbial growth, broth dilution	ATCC 8739, ATCC8739	24 h	> 50 µM
CC[C@H]1OC(=O)[C@H](C)[C@@H](OC(=O)Cc2cccc([N+](=O)[O-])c2)[C@H](C)[C@@H](O[C@@H]2O[C@H](C)C[C@H](N(C)C)[C@H]2O)[C@](C)(OC)C[C@@H](C)C(=O)[C@H](C)[C@@H](O)[C@]1(C)O	–	tolC	–	2 µg/mL
CC(CC(=O)O)c1n[nH]c2nc(N)[nH]c(=O)c2c1=O (centres unmarked)	microbial growth, broth dilution	BW25113	18 h	> 100 µg/mL

Some of these lines once more:
SMILES	assay	system	conditions	MIC
COc1ccc(/N=N/C(=S)N2CCCCC2)cc1	microbial growth, broth dilution	ATCC 8739, ATCC8739	24 h	> 50 µM
CC[C@H](C)[C@H](NC(=O)[C@H](CC(N)=O)NC(=O)[C@H](CCC(N)=O)NC(=O)[C@H](CC(C)C)NC(=O)[C@@H](NC(=O)[C@H](Cc1ccccc1)NC(=O)[C@H](Cc1ccc(O)cc1)NC(=O)[C@H](CO)NC(=O)[C@H](CS)NC(=O)[C@H](CC(C)C)NC(=O)[C@H](CCCCN)NC(=O)[C@H](CCCCN)NC(=O)[C@H](CCCNC(=N)N)NC(=O)[C@H](CCCNC(=N)N)NC(=O)[C@H](CS)NC(=O)[C@H](CCCNC(=N)N)NC(=O)[C@H](CCCCN)NC(=O)[C@H](CCCNC(=N)N)NC(=O)[C@H](CCCCN)NC(=O)[C@H](Cc1ccccc1)NC(=O)[C@@H](N)CCCNC(=N)N)[C@@H](C)CC)C(=O)N[C@@H](CC(N)=O)C(=O)N[C@@H](Cc1ccccc1)C(=O)N[C@@H](CCCNC(=N)N)C(=O)N[C@@H](CC(C)C)C(=O)N[C@@H](CCCNC(=N)N)C(=O)N[C@@H](CCCCN)C(=O)NCC(=O)N[C@@H](CCCCN)C(=O)O	broth microdilution	ATCC 25922	16 h, 37 °C, cation-adjusted Mueller-Hinton broth	64 µg/mL
C#CCNC(=O)[C@H]1NC(=O)[C@H]2NC(=O)[C@H](NC(=O)[C@@H]3NC(=O)[C@H](CC(N)=O)NC(=O)[C@H](NC(=O)[C@@H](CC(C)C)NC)[C@H](O)c4ccc(c(Cl)c4)Oc4cc3cc(c4O[C@@H]3O[C@H](CO)[C@@H](O)[C@H](O)[C@H]3O[C@H]3C[C@](C)(N)[C@H](O)[C@H](C)O3)Oc3ccc(cc3Cl)[C@H]2O)c2ccc(O)c(c2)-c2c(O)cc(O)cc21	broth microdilution	ATCC 35218, cation-adjusted Mueller-Hinton broth	18 to 20 h, 37 °C, 0.002% polysorbate 80	32 µg/mL
